Results from different studies.
Lines come from different studies, so protocols differ. “And” joins repeats or separate records; there may be more than shown. ± marks the error that the study gave.
Chain of UniProt P35462 (whole entry, looked up): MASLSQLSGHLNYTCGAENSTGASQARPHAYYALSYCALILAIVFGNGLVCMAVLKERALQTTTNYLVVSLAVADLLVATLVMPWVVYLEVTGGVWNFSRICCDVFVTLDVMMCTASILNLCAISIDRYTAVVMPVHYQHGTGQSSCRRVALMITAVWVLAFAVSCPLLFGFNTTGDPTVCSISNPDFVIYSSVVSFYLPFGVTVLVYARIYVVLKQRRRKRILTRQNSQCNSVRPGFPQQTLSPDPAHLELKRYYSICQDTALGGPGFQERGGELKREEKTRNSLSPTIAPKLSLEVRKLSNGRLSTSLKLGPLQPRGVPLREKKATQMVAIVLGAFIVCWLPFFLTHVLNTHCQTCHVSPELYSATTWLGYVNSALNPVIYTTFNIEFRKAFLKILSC

NC1(C(=O)N[C@@H](CCO)c2ccc(Cl)cc2)CCN(c2nc[nH]c3nccc2-3)CC1  incidence of Anaemia (metastatic CRPC patients; 480 mg b.i.d., grade 3 to 4, treatment-related, added: enzalutamide 160 mg daily): 0%
Cc1cccc(CNC(=O)c2cn(CCNC(=O)c3ccccc3S)c3cc4c(cc3c2=O)OC(F)(F)O4)n1  half-life (Sprague-Dawley rat, male, whole blood; intravenous, 5 mg/kg of parent compound): 5.4 h
CC(=O)N(C)[C@H]1CCN(C(=O)c2cnc3c(c2)C[C@](C)(c2ccc(F)cc2)N3)C1  creatine kinase (human; dose not given): 32800 U/L
CNCc1ccc(-c2[nH]c3cc(F)cc4c3c2CCNC4=O)cc1  diarrhoea incidence (human patients; oral, 480 mg twice daily, all grades): 22.2%
C[Si]1(C)O[Si](C)(C)O[Si](C)(C)O[Si](C)(C)O[Si](C)(C)O1  slope B, log KOA vs 1/T: 2470
CCn1c(=O)c(-c2cc(NC(=O)Nc3ccccc3)c(F)cc2Br)cc2cnc(NC)cc21  participants with grade ≥ 3 TEAE (measured: amylase increased; human, moderate hepatic impairment; oral, 50 mg single dose): 0%
CO[C@@H]1[C@H](O)[C@@H](CO)O[C@H]1n1c([N+](=O)[O-])nc2c(=O)[nH]c(N)nc21  nucleoside remaining fraction (depurination, RP-HPLC; citrate-phosphate buffer 0.5 mM; 1272 min, pH 7, 37 °C): 0.688
Cc1[nH]c(C)c(S(=O)(=O)Nc2ccc(C(F)(F)F)c(Cl)c2)c1C(=O)N1CC(F)(F)C1  IC50 (DRD3 (Homo sapiens, UniProt P35462); Go activation, antagonist, BRET; added: dopamine): > 100 µM
CCN(Cc1ccc(F)cc1)c1ccc(CO)c(Cl)c1  liver histopathology score (male F344 rat, liver; oral, 100 mg/kg/day, 2 days; direction not given): 0 and 4
CCn1cc(C(=O)N2CCOCC2)c(=O)c2cc(NC3Cc4ccccc4C3)cnc21  half-life (human male, fed, plasma; oral, 900 mg twice daily, day 1, tablet, arithmetic mean): 4.93 h
CCc1cc(C(=O)NC)c2nccc(N3CCc4c(cc(Cn5ccnc5)cc4-c4cn(C)nc4C(F)(F)F)C3=O)c2c1  serum ALT change (Sprague Dawley rats; oral, 100 mg/kg once daily, 7 days; baseline: vehicle): -5.6%
C[C@@H](Oc1ccc(S(C)(=O)=O)cc1C(=O)N1C[C@@H]2C[C@]2(c2cc(C(F)(F)F)on2)C1)C(F)(F)F  faecal excretion (human, faeces; oral, 25 mg, mean; baseline: dose): 0.3%
CNC(=O)c1ccc(-c2cnc3ncc(Cc4ccc5ncccc5c4)n3n2)cc1F  subjects with adverse event (healthy human subjects; oral, 400 mg, Headache, grade 3, all causality, added: rifampicin 600 mg/day): 0%
O=C(Nc1nc2cccc(-c3ccc(CN4CCS(=O)(=O)CC4)cc3)n2n1)C1CC1  treatment-emergent adverse events (measured: ankle fracture; human rheumatoid arthritis patients; oral, 30 mg once daily, 4 weeks, regardless of relatedness): 0%
C/C(=N\c1ccc(O)cc1)c1cc2ccccc2n1C  remaining compound (rat plasma; 0.78 ng/mL, time not given, 3 freeze-thaw cycles; baseline: nominal): 102 ± 1.7%
C=CC(=O)NC1CCN(c2ncc3ncnc(Nc4ccc(Oc5ccc6c(c5)ncn6C)c(C)c4)c3n2)CC1  adverse events incidence (measured: gingival bleeding; human male; oral, dose not given, CTCAE on-treatment AEs): 0%
CC(C)(C)c1sc2ncnc(Oc3c(F)cccc3OC(F)(F)F)c2c1-c1ccc(Cl)cc1  oral bioavailability (wild-type mice, plasma; 30 mg/kg): 46%
O=C(Cn1c(NCCO)nc2ccccc21)c1cccc([N+](=O)[O-])c1  Kd (Cyclin-dependent kinase 2, with cyclin A (CDK2, Homo sapiens, UniProt P24941)): > 100 µM
Cc1noc(C)c1-c1cc(C(O)(c2ccccn2)c2ccccn2)c2nc(C3CC3)[nH]c2c1  Ctau (human patients, plasma; oral, 0.6 mg, cycle 1 day 8, monotherapy, 24 h): 14.7 ng/mL
CC(C)(C)c1ccc(O)c(CN(Cc2cc(C(C)(C)C)ccc2O)C2CCC(NC(N)=O)CC2)c1 (centres unmarked)  dose-normalised Cmax (C57BL/6 mice, male, plasma; intraperitoneal, 5 mg/kg, single dose): 228 ng/mL per mg/kg
COc1cc(Cl)c(C(=O)N[C@@H](CN[C@H]2CC[C@@H](N)CC2)Cc2ccc(C#N)cc2)cc1-c1ccc(CN[C@H](C)c2ccc(C)cc2)o1  blood clearance (rat hepatocytes; 1 µM, 5% FCS): 21.7 mL/min/kg
CC(C)CCC[C@@H](C)[C@H]1CC[C@H]2[C@@H]3C(O)CC4=CC(=O)CC[C@]4(C)[C@H]3CC[C@]12C (some centres unmarked)  relative peak deviation (human, plasma; endogenous baseline diurnal; baseline: daily mean concentration): 88.4 ± 18.5%
Cn1cnc2c(F)c(Nc3ccc(Br)cc3Cl)c(C(=O)NOCCO)cc21  relative bioavailability (population PK model; human, plasma; oral, nonlinear absorption model; baseline: fed over fasted): 0.77
CNC(=O)c1cc(Oc2ccc(NC(=O)Nc3cc(C(C)(C)C)nn3-c3ccc4ncccc4c3)c(F)c2)ccn1  patients with nervous system disorder AE (measured: worst grade 3; human; oral, dose not given, cycles 1 and 2, Medium Cmax subgroup): 7%
NC(CO)(CO)CCc1ccc(Sc2cccc(OCc3ccccc3)c2)cc1Cl  pulse rate AUEC, mean (human, supine; oral, 3 mg, 0 to 312 h, alone): 19200 h×bpm
COc1cc(Nc2ncc3c(n2)-c2ccc(Cl)cc2C(c2c(F)cccc2OC)=NC3)ccc1C(=O)O  patients with muscle weakness (cancer patients; oral, dose not given, grade 1 any attribution, added: pembrolizumab): 21%
CCN1CCN(Cc2ccc(Nc3ncc(F)c(-c4cc(F)c5nc(C)n(C(C)C)c5c4)n3)nc2)CC1  maximum absorption rate (population PK model; human, plasma; oral): 94.1 µmol/h
Cc1cc(C)c(CNC(=O)c2cc(Cl)c3c(c2C)O[C@@](C)([C@H]2CC[C@H](N(C)C)CC2)O3)c(=O)[nH]1  unbound fraction (ultracentrifugation; solution, alpha-1 acid glycoprotein, 0.1%; 3000 ng/mL, 160 min): 0.152
CC(C)[C@H](C(=O)Nc1ccc(C(=O)NO)cc1)c1ccccc1  measured concentration (whole blood; 10.0 ng/mL, 3 h, 4 °C, stability on ice): 10 ng/mL
O=C(O)CCCCCCCCC(=O)O  relative peak deviation (human, plasma; endogenous baseline diurnal; baseline: daily mean concentration): 56.1 ± 9.4%
Cc1ccc(Sc2ccccc2N2CCNCC2)c(C)c1  participants with TEAE (measured: ureteric calculus; healthy adult men; oral, 20 mg daily, 12 days): 0%
Cc1cc(C)c(CNC(=O)c2cc(Cl)c3c(c2C)O[C@@](C)([C@H]2CC[C@H](N(C)C)CC2)O3)c(=O)[nH]1  patients with TEAE (measured: Headache; human patients; oral, 200 mg once daily, 1 day onset day 14): 12.5%
N#CCNC(=O)c1ccc(-c2ccnc(Nc3ccc(N4CCOCC4)cc3)n2)cc1  AUC0-last ratio (healthy human volunteers, plasma; oral, dose not given, added: single-dose rifampin; baseline: compound alone): 158%
CNC(=O)c1cccc(-c2ccc(O[C@H]3O[C@H](CO)[C@@H](O)[C@H](O)[C@@H]3O)c(C)c2)c1  urinary recovery (male Sprague-Dawley rat, urine; oral, 10 mg/kg, 24 h, mean; baseline: dose): 0.24%
CC(C)Oc1c(NC(=O)c2ccc(NC(=O)[C@H](CC(N)=O)NC(=O)c3ccc(NC(=O)c4ccc(C#N)cc4)cc3)cc2)ccc(C(=O)N/N=C/c2ccc(C(=O)O)cc2)c1O  thermal half-life (absorbance; DMSO; 45 °C, PSS to ground state relaxation): 0.6 h
Cn1cc(Nc2nccc(-c3ccc4c(c3)CN(C3COC3)CC[C@H]4NC(=O)c3cn(C(C)(C)C)nn3)n2)cn1  transitional B cell count change (human, whole blood; 50 mg twice daily, day 14; baseline: pre-dose baseline): 26.5%
CCOc1c([C@H](C)n2nc(C)c3c(N)ncnc32)cc(Cl)c(F)c1[C@@H]1CNC(=O)C1  ECG observations (measured: QRS >100 to ≤110 ms; previously treated B-cell malignancy; oral, 45 mg once daily, baseline below thresholds): 0%
COc1cccc(OC)c1-c1cc(C(=O)NC2(C(=O)O)C3CC4CC(C3)CC2C4)nn1-c1ccc(C(=O)N(C)CCCN(C)CCCN(C)C(=O)CN2CCN(CC(=O)[O-])CCN(CC(=O)[O-])CCN(CC(=O)[O-])CC2)cc1C(C)C.[177Lu+3] (centres unmarked)  tissue uptake (mouse, HT-29 xenograft, lung; 4 h post injection): 4.5 %ID/g
COc1cc(N2CCC3(CCN(C)CC3)CC2)ccc1Nc1ncc(Cl)c(Nc2ccccc2P(C)(C)=O)n1  V2/F (population PK model; human; oral, final model): 295 L
Cc1cc(-c2nccc3c2ccn3CC(=O)Nc2ccc(-c3cnccn3)cn2)ccn1  nervous system disorders (human; 20 mg once daily, multiple ascending dose): 44.4%
COCC(=O)N1CCC[C@H](C(=O)NCc2nc(-c3ccccc3)cs2)C1  urinary excretion (Sprague-Dawley rat, male, urine; intravenous, 1 mg/kg, 24 h; baseline: dose): 0.68%
COc1ncc(-c2nc3c(n2C(C)C)[C@H](c2ccc(Cl)cc2)N(c2cc(Cl)cn(C)c2=O)C3=O)c(OC)n1  geometric mean Cmax (human patients, plasma; oral, 4 mg, cycle 1 day 1, low-dose): 17.6 ng/mL
CS(=O)(=O)N(CC(=O)Nc1ccccc1C(=O)N1CCOCC1)c1ccc(Cl)cc1  Kd (CDK2 (Homo sapiens, UniProt P24941); binding): > 100 µM
Cn1cc(-c2ccc(-c3cncc(Cl)c3N3CCC4(CCNC4=O)CC3)cc2)cn1  fold change in expression (COLO 205; microarray, measured: CTGF; concentration not given, 6 h; baseline: untreated cells): 1.5
